Assay results collected from several papers.
Every numbered part comes from another study and shows a few of its results, in no order. Changes are numbered by the printed parent chain.

Study 1 — target: CCNB2, cyclin fold, Cln2 fusion (human); method: yeast growth competition, sequencing; sample: yeast; setting: weak parent motif; reference: not given; reading: higher = stronger binding
Parent: SCAPER docking peptide (human); SNARRSLNFGGST; partner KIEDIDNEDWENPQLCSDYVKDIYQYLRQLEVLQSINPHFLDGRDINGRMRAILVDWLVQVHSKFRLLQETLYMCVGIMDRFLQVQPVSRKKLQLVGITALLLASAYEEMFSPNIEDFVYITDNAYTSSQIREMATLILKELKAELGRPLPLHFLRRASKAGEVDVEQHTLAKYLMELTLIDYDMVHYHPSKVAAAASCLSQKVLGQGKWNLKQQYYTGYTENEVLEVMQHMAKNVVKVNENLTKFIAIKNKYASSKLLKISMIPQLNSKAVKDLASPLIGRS
Variant	normalised enrichment score
SNARRSANFGGST [L7A]	0.772
SNARRSLNFGGGT [S12G]	0.424
SYARRSLNFGGST [N2Y]	-0.267
SNAGRSLNFGGST [R4G]	-0.14
SNARRKLNFGGST [S6K]	0.602
STARRSLNFGGST [N2T]	0.172
SNARRSLNHGGST [F9H]	-0.00784
SNARRSLNFKGST [G10K]	0.379
SHARRSLNFGGST [N2H]	0.202
SNCRRSLNFGGST [A3C]	0.0172
SNARRSLNFFGST [G10F]	0.881
SNARRSLMFGGST [N8M]	0.328

Study 2 — method: protein binding microarray; form: double-stranded DNA, one strand shown; sample: in vitro; tested at: not given; reference: not given; reading: higher = stronger binding
Target: Histone acetyltransferase KAT6A, winged helix 1, GST fusion (KAT6A, Homo sapiens, UniProt Q92794, residues 1-85)
Setting: 8-mer, flanks averaged, mean of 2 arrays, mostly near background
Residues (chain): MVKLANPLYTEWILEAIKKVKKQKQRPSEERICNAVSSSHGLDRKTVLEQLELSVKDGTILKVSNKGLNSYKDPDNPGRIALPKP
Sequence	E-score
ATCATTTC	-0.264
ATTTATTC	-0.167
AGGCTGGG	-0.348
CAATCTAG	-0.126
AGGGCTGG	-0.166
ATTCGCGG	0.278
CTGCCTGA	-0.103

Study 3 — method: universal PBM; form: double-stranded DNA, one strand shown; sample: in vitro; tested at: 600 nM; reading: higher = stronger binding
Target: Sal-like protein 4, full length isoform A (SALL4, Homo sapiens, UniProt Q9UJQ4, residues 1-1053)
Chain of UniProt Q9UJQ4 (whole entry, looked up): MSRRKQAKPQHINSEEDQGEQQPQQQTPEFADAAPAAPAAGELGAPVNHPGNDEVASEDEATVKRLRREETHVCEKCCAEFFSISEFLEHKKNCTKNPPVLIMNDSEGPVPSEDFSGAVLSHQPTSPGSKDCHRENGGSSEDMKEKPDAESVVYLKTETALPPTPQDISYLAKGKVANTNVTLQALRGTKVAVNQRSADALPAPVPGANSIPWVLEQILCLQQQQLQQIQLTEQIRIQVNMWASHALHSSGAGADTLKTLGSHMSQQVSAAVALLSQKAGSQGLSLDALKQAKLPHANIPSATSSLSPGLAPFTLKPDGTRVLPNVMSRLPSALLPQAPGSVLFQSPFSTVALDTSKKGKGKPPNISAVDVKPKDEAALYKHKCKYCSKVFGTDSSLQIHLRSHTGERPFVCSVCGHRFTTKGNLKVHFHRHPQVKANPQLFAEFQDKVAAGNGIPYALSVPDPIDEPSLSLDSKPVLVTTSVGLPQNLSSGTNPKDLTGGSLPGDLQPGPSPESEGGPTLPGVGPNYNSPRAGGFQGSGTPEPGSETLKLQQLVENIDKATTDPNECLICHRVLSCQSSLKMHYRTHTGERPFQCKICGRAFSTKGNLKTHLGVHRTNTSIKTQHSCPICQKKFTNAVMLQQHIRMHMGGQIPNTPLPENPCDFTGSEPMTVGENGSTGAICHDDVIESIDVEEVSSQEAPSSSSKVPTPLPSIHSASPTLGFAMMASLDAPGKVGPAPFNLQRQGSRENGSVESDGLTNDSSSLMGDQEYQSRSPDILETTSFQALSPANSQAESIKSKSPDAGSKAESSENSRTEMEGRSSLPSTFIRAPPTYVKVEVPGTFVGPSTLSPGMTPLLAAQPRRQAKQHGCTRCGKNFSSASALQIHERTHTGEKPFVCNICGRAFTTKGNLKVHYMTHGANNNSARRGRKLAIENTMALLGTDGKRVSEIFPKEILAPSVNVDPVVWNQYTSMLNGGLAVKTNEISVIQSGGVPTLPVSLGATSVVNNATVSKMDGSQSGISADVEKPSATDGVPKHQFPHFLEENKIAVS
Setting: 8-mer, flanks averaged, mean of replicates
Sequence	E-score
CTAGGAAG	-0.121
AAGTTTAC	0.187
CGGCATGC	-0.234
ACTAGGCC	-0.272
CTTACCGA	0.0555
CTCAGCCA	-0.202
TGTACACA	0.28
AACTGCTG	-0.134
CCGGAGTC	-0.289
AGTCGATA	0.235
CTTCATGC	-0.0576
CCATGCCA	-0.149

Mixed results
Substance	target	assay	test system	setting	how to read	endpoint	value
PhoQ, residues 284 288 289 292 302 303 NSMLDC	PhoP, residues 12 14 15 18 19 SMASL (Escherichia coli, UniProt P23836)	Sort-seq, item: YFP reporter	E. coli	PhoQ-PhoP variant library, together with: 10 µM Mg2+	reference: high Mg2+ state, higher = stronger signaling	fold induction	11
